# Assay results pooled from the literature.
# Each numbered part is a random draw from the data of one study; scales do not carry over between parts. Positions count from the first letter of the parent shown.
# UniProt P53667, sequence (whole entry, looked up): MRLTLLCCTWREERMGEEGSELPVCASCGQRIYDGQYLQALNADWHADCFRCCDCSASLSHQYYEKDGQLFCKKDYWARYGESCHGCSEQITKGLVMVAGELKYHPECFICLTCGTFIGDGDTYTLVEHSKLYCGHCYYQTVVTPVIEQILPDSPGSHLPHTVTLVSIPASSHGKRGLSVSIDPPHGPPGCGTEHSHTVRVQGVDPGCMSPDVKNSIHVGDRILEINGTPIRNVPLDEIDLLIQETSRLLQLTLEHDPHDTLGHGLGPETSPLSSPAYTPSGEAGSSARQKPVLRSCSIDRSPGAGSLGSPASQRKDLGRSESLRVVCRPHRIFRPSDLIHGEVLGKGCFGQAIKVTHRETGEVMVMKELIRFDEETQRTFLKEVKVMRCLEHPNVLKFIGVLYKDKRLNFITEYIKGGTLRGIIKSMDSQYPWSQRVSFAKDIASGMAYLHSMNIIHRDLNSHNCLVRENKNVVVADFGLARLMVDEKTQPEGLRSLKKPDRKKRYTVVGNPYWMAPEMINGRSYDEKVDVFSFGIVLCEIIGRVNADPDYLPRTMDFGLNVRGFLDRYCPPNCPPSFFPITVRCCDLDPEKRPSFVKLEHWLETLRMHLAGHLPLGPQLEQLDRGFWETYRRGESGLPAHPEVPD

# Study 1 — target: inorganic phosphate, free oxyanion; technique: microfluidic competitive inhibition; sample: in vitro, cell-free expressed; tested at: not given; direction: lower = stronger binding
# Notes: derived from inhibition constants, unchanged parent 615000 nM
# Parent: PafA, mature enzyme, eGFP fusion (Elizabethkingia meningoseptica, UniProt Q9KJX5); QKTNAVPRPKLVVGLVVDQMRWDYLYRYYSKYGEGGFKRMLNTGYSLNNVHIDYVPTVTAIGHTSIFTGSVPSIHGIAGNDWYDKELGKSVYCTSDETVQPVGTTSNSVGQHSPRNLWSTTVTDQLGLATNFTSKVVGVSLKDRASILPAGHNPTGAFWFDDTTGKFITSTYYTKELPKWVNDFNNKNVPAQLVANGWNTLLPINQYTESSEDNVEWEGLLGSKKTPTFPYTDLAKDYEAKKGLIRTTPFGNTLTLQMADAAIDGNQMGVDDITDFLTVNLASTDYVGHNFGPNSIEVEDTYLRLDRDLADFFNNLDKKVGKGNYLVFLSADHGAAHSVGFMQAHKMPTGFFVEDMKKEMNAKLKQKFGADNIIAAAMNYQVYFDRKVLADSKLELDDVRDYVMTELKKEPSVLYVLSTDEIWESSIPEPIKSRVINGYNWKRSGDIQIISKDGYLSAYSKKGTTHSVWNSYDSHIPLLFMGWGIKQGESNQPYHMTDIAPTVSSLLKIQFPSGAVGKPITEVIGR
Substitution,phosphate dissociation constant
M360V,631 µM
F384G,527 µM
H495V,557 µM
T133G,530 µM
N314V,628 µM
Y383V,664 µM
G323A,614 µM
D401G,616 µM

# Study 2 — target: CCNE2, cyclin fold, Cln2 fusion (human); technique: yeast growth competition, sequencing; sample: yeast; notes: strong parent motif; relative to: not given; direction: higher = stronger binding
# Parent: viral docking peptide; KKVKRRLFETREL; partner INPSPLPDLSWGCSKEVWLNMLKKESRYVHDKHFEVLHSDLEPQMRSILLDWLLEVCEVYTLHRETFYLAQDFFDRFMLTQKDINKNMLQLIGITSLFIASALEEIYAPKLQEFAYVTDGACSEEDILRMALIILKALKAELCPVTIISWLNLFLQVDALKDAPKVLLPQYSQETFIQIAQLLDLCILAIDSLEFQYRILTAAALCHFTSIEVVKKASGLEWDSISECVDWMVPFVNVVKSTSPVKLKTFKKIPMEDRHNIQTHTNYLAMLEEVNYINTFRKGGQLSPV
Substitution,normalised enrichment score
KKVKARAFETREL [R5A L7A],0.925
AKVKRRLFETREL [K1A],4.95
KKVKRRLFETRAL [E12A],3.17
KKVKRRAFETREL [L7A],1.1

# Study 3 — effect on: binding; technique: phage display NGS; molecule type: peptide; relative to: input library
# Target: UDP-N-acetylglucosamine--peptide N-acetylglucosaminyltransferase 110 kDa subunit (OGT, Homo sapiens, UniProt O15294)
# UniProt O15294, sequence (whole entry, looked up): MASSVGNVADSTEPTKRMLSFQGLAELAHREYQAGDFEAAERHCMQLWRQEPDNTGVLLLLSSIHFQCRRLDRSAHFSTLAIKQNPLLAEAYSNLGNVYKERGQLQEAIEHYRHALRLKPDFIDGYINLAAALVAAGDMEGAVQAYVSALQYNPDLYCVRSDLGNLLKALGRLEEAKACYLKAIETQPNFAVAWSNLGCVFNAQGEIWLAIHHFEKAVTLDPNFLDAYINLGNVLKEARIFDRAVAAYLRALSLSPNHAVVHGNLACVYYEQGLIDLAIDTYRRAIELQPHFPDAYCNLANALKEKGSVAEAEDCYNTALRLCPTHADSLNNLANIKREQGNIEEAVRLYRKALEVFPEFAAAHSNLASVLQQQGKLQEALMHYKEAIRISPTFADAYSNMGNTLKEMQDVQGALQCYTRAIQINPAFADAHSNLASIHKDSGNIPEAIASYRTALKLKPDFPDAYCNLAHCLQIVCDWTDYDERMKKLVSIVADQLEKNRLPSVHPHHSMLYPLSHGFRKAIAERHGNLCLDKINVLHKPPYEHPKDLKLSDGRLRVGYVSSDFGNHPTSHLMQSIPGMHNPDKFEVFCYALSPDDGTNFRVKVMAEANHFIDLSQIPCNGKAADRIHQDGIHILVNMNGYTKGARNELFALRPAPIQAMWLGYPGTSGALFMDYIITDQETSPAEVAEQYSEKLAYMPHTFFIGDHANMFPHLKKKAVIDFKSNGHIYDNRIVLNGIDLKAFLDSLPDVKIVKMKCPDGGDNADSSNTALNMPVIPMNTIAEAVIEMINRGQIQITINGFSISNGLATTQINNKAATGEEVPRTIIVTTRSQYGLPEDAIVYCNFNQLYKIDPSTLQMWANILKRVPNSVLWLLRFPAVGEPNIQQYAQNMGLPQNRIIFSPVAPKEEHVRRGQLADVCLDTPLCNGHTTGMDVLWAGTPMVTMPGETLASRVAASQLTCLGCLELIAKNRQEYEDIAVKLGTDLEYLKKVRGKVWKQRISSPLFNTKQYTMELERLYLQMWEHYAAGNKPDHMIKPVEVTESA
Sequence,minimum log2 enrichment ratio
QRYGHTHMDHFSTSI,1.7
HEPKHAEMESYYNIH,1.38
HQSHYQHTSPAIIHK,2.28
HDHQHESWFVHIPH,3.4
SHTHTQRDFHGIYSN,3.29
GISDGMYMPWYKIRT,1.18
HIVHYNKYFASGTHT,1.25
SFPRHQHTYHTQPSR,2.39

# Mixed results
SMILES,target,assay,conditions,how to read,endpoint,result
COC[C@H]1OC(=O)c2coc3c2[C@@]1(C)C1=C(C3=O)[C@@H]2CCC(=O)[C@@]2(C)C[C@H]1OC(C)=O,"LIM domain kinase 1 (LIMK1, Homo sapiens, UniProt P53667)","enzyme activity, inhibitor",0.5 µM,relative to: control,remaining activity,86.7%

# Excerpt of the above (study 3):
Sequence,minimum log2 enrichment ratio
QRYGHTHMDHFSTSI,1.7
HEPKHAEMESYYNIH,1.38
HQSHYQHTSPAIIHK,2.28
